Measurements from different studies.
Protocols differ between the studies behind these lines. Several values in a cell are separate wells, animals, samples, runs or records. ± gives the spread as reported.

Structure (SMILES)	cell line	test	setting	scale	measurement	result
Cn1cc(Nc2nccc(-c3ccc4c(c3)CN(C3COC3)CC[C@H]4NC(=O)c3cn(C(C)(C)C)nn3)n2)cn1	human B cells	–	100 nM, 64 h, stimulation-downregulated genes, added: CD40L, anti-IgM, IL-4	–	number of unchanged genes	1840
CN(c1ccccc1)S(=O)(=O)c1nnc(NC(=O)c2ccccc2)s1	LDR	silenced CMV-GFP reporter derepression, qHTS	–	–	efficacy	188%
Cn1cc(C2=C(c3ccc(Cl)cc3Cl)C(=O)NC2=O)c2ccccc21	primary human cortical neurons	Western blot	5 µM, 48 h, added: HIV Tat and maraviroc 2.5 µM	–	NeuN protein level	increased
CC(C)NCC(O)c1ccc(O)c(O)c1 (centres unmarked)	mouse ventricular cardiomyocytes	–	dose not given, 0.183 s	–	sarcomere length	1.66 µm
Cc1nc(N(Cc2ccccc2)c2ccc3c(c2)/C(=C/c2ccccc2)C(=O)N3Cc2ccccc2)c2ccccc2n1 (mixture of isomers)	LLC	annexin V-FITC/PI	concentration not given	–	apoptotic cells	78.4%
COc1ccc2c(N(C)c3ccc(/C(C)=N/OCCN)cc3)c3c(Cl)coc3nc2c1	RWPE-1	trypan blue exclusion	0.5 µM	–	inhibition of cell proliferation	40%
CSc1cc(Oc2ccnc3[nH]c(=O)cnc23)ccc1NC(=O)Nc1cc(C(C)(C)C)nn1-c1ccccc1	patient-derived cell line clone A	RPPA	1 µM, 4 h	reference: DMSO	phospho-Met/total Met ratio	0.8
CCCCCCCCCCCCCCCC(NCc1cccc(C)c1)=C1C(=O)OC(CO)C1=O (centres unmarked)	G2-synchronized tsFT210 cells	flow cytometry	50 µM, 4 h, 32 °C, release from G2 arrest	–	G1 phase cells	51.2%
CC(=O)N[C@@H](CS)C(=O)O	HeLa	annexin V/PI flow cytometry	concentration not given, 48 h	–	late apoptotic cells	3.05 ± 0.55%
O=C(/C=C/C=C/C=C/C1CCCCC1)NC1=C[C@@](O)(/C=C/C=C/C=C/C(=O)NC2=C(O)CCC2=O)[C@@H]2O[C@@H]2C1=O	HEC-251	cell growth, CellTiter-Glo	78 h	–	GI50	21.8 µM
CC(C)(C)c1nc(-c2cccc(NS(=O)(=O)c3c(F)cccc3F)c2F)c(-c2ccnc(N)n2)s1	SK-MEL-239 C4 (p61 BRAF V600E)	ERK phosphorylation, Western blot	1 h	–	IC75	0.731 µM
CCn1cc(-c2cc(Cn3ccnc3)cc3c2CCN([C@H](c2cc(OC)ccn2)C2CC2)C3=O)c(C(F)(F)F)n1	KLM1	cell growth, inhibitor	120 h	–	EC50	> 30 µM
CCCCN1C[C@H](O)[C@@H](O)[C@@H](O)[C@H]1CO	sample A patient fibroblasts	Gb3 level lowering, LC-MS/MS, item: Gb3 d18:1/24:1	216 h	–	IC50	11.6 µM
Cn1cc(-c2ccc(-c3cncc(Cl)c3N3CCC4(CCNC4=O)CC3)cc2)cn1	COLO 205	gene expression, microarray, item: CORO1A mRNA	concentration not given, 6 h	reference: untreated cells	log2 fold change	-3.54
COc1cc2ncnc(Nc3ccc(Oc4ccccc4)c(C)c3C)c2cc1OC.Cl	MeWo (NF1)	cell viability, resazurin	3 µM, 72 h, added: trametinib	–	average fractional effect	18%
CCCCS(=N)(=O)CCC(N)C(=O)O (centres unmarked)	OVCAR-5	LC-ESI-MS/MS, item: glutathione	20 µM, 12 h	–	cellular GSH concentration	58.8 ± 2.3 µM
CC(C)C[C@@H](C=O)NC(=O)[C@H](CC(C)C)NC(=O)[C@H](CC(C)C)NC(=O)OCc1ccccc1	LDR	silenced CMV-GFP reporter derepression, qHTS	–	–	Emax	171%
COc1cc(C[C@H]2COC(=O)[C@@H]2Cc2ccc(O)c(OC)c2)ccc1O	neuroblastoma M2 (−)	western blot	IC50	reference: untreated	PCNA level	decreased
C=CC1=C(C)c2cc3[n-]c(cc4nc(cc5[n-]c(cc1n2)c(C)c5C=C)C(C)=C4CCC(=O)O)c(CCC(=O)O)c3C.[Zn+2]	SH-SY5Y	RNA-seq, item: SGK1 mRNA	5 µM, 5 h	reference: untreated cells	fold change	1.55
CC(C)n1cnc2c(NCc3ccccc3O)nc(NCCCO)nc21	HeLa	splicing reporter, item: GLA	10 µM, 18 h	–	GFP/RFP ratio	0.15
CCCCc1nc(Cl)c(CO)n1Cc1ccc(-c2ccccc2-c2nn[nH]n2)cc1	human PBMC	RNA-seq, item: GPR34 mRNA	10 µg/mL, 24 h	reference: untreated control	log2 fold change	-3.54
COc1cnc2cccc(N3CCc4c(cc(Cn5ccnc5C)cc4-c4cn(C)nc4C(F)(F)F)C3=O)c2c1	HARA	cell growth	120 h	–	EC50	5.37 µM
CCc1ccc(NC(=O)Nc2c[nH]c3ccccc23)cc1	RAW-ISG	western blot	10 µM, added: HT-DNA	reference: vehicle	phospho-TBK1/TBK1 ratio	0.887 and 0.513 and 0.584
C=Cc1c2[n-]c(c1C)/C=c1\[n-]/c(c(C)c1C=C)=C\c1[n-]c(c(CCC(=O)O)c1C)/C=c1\[n-]c(c(C)c1CCC(=O)O)=C2.[Sn+4]	SH-SY5Y	RNA-seq, item: PHLDA1 mRNA	5 µM, 5 h	reference: untreated cells	fold change	1.91

Structure (SMILES)	cell line	test	setting	scale	measurement	result
CCn1cc(-c2cc(Cn3ccoc3=N)cc3c2CCN([C@@H](C)c2cc(OC)ccn2)C3=O)c(C(F)(F)F)n1	RERFGC1B	cell growth	120 h	–	EC50	2.69 µM
CCOc1ccc(NC(=O)c2nc(S(=O)(=O)Cc3ccccc3F)ncc2Cl)cc1	LDR	silenced CMV-GFP reporter derepression, qHTS	–	–	efficacy	79%
Nc1cccc2c1C(=O)N(C1CCC(=O)NC1=O)C2=O (centres unmarked)	RPMI-8226	flow cytometry, item: CD73	concentration not given	reference: comparator compound alone	surface marker level	47.6%
CC(=O)c1nn(-c2ccc(Cl)cc2)/c(=N/N=C(\C)c2ccc(NC(=O)c3ccccc3)cc2)s1	HepG2	–	10 µM	–	viability	3.59%
CN1CCN(c2ccc3[nH]c(-c4ccc5[nH]c(-c6ccc(C(F)(F)F)cc6)nc5c4)nc3c2)CC1	TK-10	SRB	10 µM, 48 h	–	growth percent	101%
Nc1ncnc2c1ncn2[C@@H]1O[C@H](CO)[C@@H](O)[C@H]1O	activated human T cells	item: adenosine	30 µM	reference: DMSO	log2 fold change	0.759 and 0.7 and 1.5
CCc1c(-c2ccccc2)c(-c2ccccc2)nn1-c1ccccc1-c1cccc(OCC(=O)O)c1	mouse bone marrow macrophages	osteoclast differentiation, inhibitor, TRAP staining	30 µM, added: M-CSF and RANKL	–	normalized response	0%
COc1ccccc1/C=C1\SC(N2CCCCC2)=NC1=O	NG108-cl	clomeleon fluorescence, item: intracellular chloride reduction	5 h	–	EC50	inactive
CC(=O)N[C@@H](CSC(=O)[C@]1([C@@H](O)C(C)C)NC(=O)[C@H](C)[C@@H]1O)C(=O)O	LDR	silenced CMV-GFP reporter derepression, qHTS	–	–	Emax	52%
Cc1cc(Nc2ncc(Cl)c(Nc3ccccc3S(=O)(=O)C(C)C)n2)c(OC(C)C)cc1C1CCNCC1	CLB-BAR	phosphoproteomics LC-MS/MS, item: FNBP1L phosphorylation	200 nM, 60 min	reference: untreated	log2 fold change	-1.6
COc1cc2ncnc(Nc3ccc(Oc4ccccc4)cc3C)c2cc1OC.O=C(O)C(F)(F)F	MeWo (NF1)	cell viability, resazurin	3 µM, 72 h, added: trametinib 0 nM	–	average fractional effect	20%
CC1(C)CCC(CN2CCN(c3ccc(C(=O)NS(=O)(=O)c4ccc(NCC5CCOCC5)c([N+](=O)[O-])c4)c(Oc4cnc5[nH]ccc5c4)c3)CC2)=C(c2ccc(Cl)cc2)C1	mouse BMDM	CellTiter-Glo	concentration not given	–	viability	9.79%
COc1ccnc(CSC(N)=Nc2ccccc2OC)c1.Cl	LDR	silenced CMV-GFP reporter derepression, qHTS	–	–	efficacy	120%
CCNc1nc(Nc2ccc(F)c(Cl)c2)c2ccccc2n1	Vero	MTT	250 µg/mL	–	cytotoxicity	79.4%
O=P1(C2CCCCC2)CCCCC1	SW480	MTT	72 h	reference: IC50 HaCaT over IC50 SW480	selectivity index	19.6
CC(C)C[C@H](NC(=O)N1CCCCCC1)C(=O)N[C@H](Cc1cn(C)c2ccccc12)C(=O)N[C@H](Cc1ccc(O)cc1)C(=O)O	22Rv1 intact cells, vector	radioligand binding	–	–	Kd	0.000121 µM
c1ccc2[nH]ccc2c1	HCT-8	RNA-seq, item: TSC22D3	concentration not given	–	mRNA level, LS mean	20.9 counts per million
Cn1cnc2c1c(=O)n(CC(=O)Nc1c(Cl)cccc1Cl)c(=O)n2C	Vero	MTT	31.25 µg/mL	–	cytotoxicity	0.256%
O=c1cc(C(Cl)(Cl)Cl)oc2ccc(Cl)cc12	Neuro2a	inhibitor, RT-qPCR	concentration not given, added: BRP 100 µg/mL	–	Fos mRNA level	inhibited
CC#CC(=O)N1CC[C@@H](n2cc(-c3ccc(Oc4c(F)cccc4F)cc3)c3c(N)n[nH]c(=O)c32)C1	REC-BTK^C481S	cell growth	72 h	–	GI50	10.8 µM
CCc1cnc(N2CCC(c3nc(COc4ccc(-n5cnnn5)cc4)cs3)CC2)nc1	HEK-293T	RNA-seq GSEA, item: Hallmark androgen response	concentration not given	direction not given	normalized enrichment score	1.17
O=S(=O)(NNc1nnc(Cl)c2ccccc12)c1ccc(F)cc1	Vero	MTT	31.25 µg/mL	–	cytotoxicity	0.16%
CC/C(=N\NC(=O)NCc1cccc(O)c1)c1ccc(O)c(C)c1O	SK-OV-3	Western blot, item: TAZ	10 µM, 6 h, 2D culture, unit not given	reference: β-actin	protein level	1.66 ± 0.88

Repeated from above:
Structure (SMILES)	cell line	test	setting	scale	measurement	result
Cn1cc(-c2ccc(-c3cncc(Cl)c3N3CCC4(CCNC4=O)CC3)cc2)cn1	COLO 205	gene expression, microarray, item: CORO1A mRNA	concentration not given, 6 h	reference: untreated cells	log2 fold change	-3.54
CCn1cc(-c2cc(Cn3ccoc3=N)cc3c2CCN([C@@H](C)c2cc(OC)ccn2)C3=O)c(C(F)(F)F)n1	RERFGC1B	cell growth	120 h	–	EC50	2.69 µM
CCCCS(=N)(=O)CCC(N)C(=O)O (centres unmarked)	OVCAR-5	LC-ESI-MS/MS, item: glutathione	20 µM, 12 h	–	cellular GSH concentration	58.8 ± 2.3 µM
CC1(C)CCC(CN2CCN(c3ccc(C(=O)NS(=O)(=O)c4ccc(NCC5CCOCC5)c([N+](=O)[O-])c4)c(Oc4cnc5[nH]ccc5c4)c3)CC2)=C(c2ccc(Cl)cc2)C1	mouse BMDM	CellTiter-Glo	concentration not given	–	viability	9.79%
CC/C(=N\NC(=O)NCc1cccc(O)c1)c1ccc(O)c(C)c1O	SK-OV-3	Western blot, item: TAZ	10 µM, 6 h, 2D culture, unit not given	reference: β-actin	protein level	1.66 ± 0.88
